# Assay results of several laboratories.
# ± marks the error that the study gave.
SMILES,assay,test system,setting,fraction unbound
Cc1c(Br)cc(NC(=O)CS(=O)(=O)O)cc1Br,equilibrium dialysis,mouse plasma,4.5 h,< 0.01
CN1CC(Oc2cnc(C#N)cc2-c2ccn3nc(NC(=O)C4CC4)cc3c2)C1,,rat plasma diluted 25%,"1 µM, 6 h, pH 7.4",0.49
C[C@@H](N)COc1ccc(-c2cnc3ccc(N[C@H](C)c4cccc(F)c4)nn23)cc1,equilibrium dialysis,cell medium with 10% FBS,,0.62
Clc1ccc(COc2cncc(-c3cnn(C4CCNCC4)c3)c2)c(Cl)c1,,mouse brain,,0.0014
COCCc1ccc(OCC(O)CNC(C)C)cc1 (stereo not drawn),rapid equilibrium dialysis,human plasma,"2 µM, 6 h, pH 7.4",0.914
C=C(F)C(=O)N1CCN(c2nc(OC[C@@H]3CCCN3C)nc3c2CCN(c2cccc4cccc(Cl)c24)C3)C[C@@H]1CC#N,equilibrium dialysis,human plasma,,0.023
c1cc(-c2ccc3ncnc(NC4CCOCC4)c3c2)cc(N2CCOCC2)c1,,human plasma,,0.0029
CC(=O)CC(c1ccccc1)c1c(O)c2ccccc2oc1=O (stereo not drawn),rapid equilibrium dialysis,rat plasma,"2 µM, 6 h, pH 7.4",0.0083
CC(=O)CC(c1ccccc1)c1c(O)c2ccccc2oc1=O (stereo not drawn),equilibrium dialysis,female Balb/c mouse plasma,"2 µM, 6 h",< 0.01
O=S(=O)(c1ccc(-c2ccc3nccc(Nc4cccnc4)c3c2)cc1)N1CCOCC1,,human plasma,,0.053
COc1cc2nc(N3CCN(C(=O)C4COc5ccccc5O4)CC3)nc(N)c2cc1OC (stereo not drawn),equilibrium dialysis,human plasma,,0.066
CC(C)NCC(O)COc1cccc2ccccc12 (stereo not drawn),equilibrium dialysis,human plasma,,0.169
C=CC(=O)Nc1cc(Nc2nccc(-c3cn(C)c4ccccc34)n2)c(OCC(F)(F)F)nc1N(C)CCN(C)C,equilibrium dialysis,human plasma,,0.63%
CCOC(F)(F)c1nnc2cnc(-c3cnc(OCC(F)(F)F)c(F)c3)cn12,,mouse brain,,0.015
C[C@@H]1CN(Cc2ncccn2)C[C@H]1c1nc2c(cnn2C2CCOCC2)c(=O)[nH]1,equilibrium dialysis,mouse plasma,6 h,0.87
CC1(C)C(/C=C/C=C/C=C/C=C2\N(CCCCS(=O)(=O)O)c3ccc4ccccc4c3C2(C)C)=[N+](CCCCS(=O)(=O)[O-])c2ccc3ccccc3c21,,mouse serum,"8 h, 37 °C",< 0.1
C=CC(=O)N1CC2(CCN(c3nc4c(c(-c5cc(O)cc6ccccc56)c3F)COC(C)(C)C4)C2)C1,,mouse plasma,,0.007
CC(C)N1Cc2cc(C(F)(F)F)ncc2C2=CN=C(NCc3c(F)ccc4c3CCO4)N3C=NC(C1=O)C23 (stereo not drawn),,rat plasma,,0.01
C/C(O)=C(\C#N)C(=O)Nc1ccc(C(F)(F)F)cc1,rapid equilibrium dialysis,CD-1 mouse plasma,24 h,0.022 ± 0.00068
Cn1cc(Nc2ncnc3ccc(-c4cccc(N5CCOCC5)c4)cc23)cn1,,human plasma,,0.0096
CC(=O)Nc1ccc(O)cc1,rapid equilibrium dialysis,rat plasma,"2 µM, 6 h, pH 7.4",0.495
COc1ccccc1Oc1c(NS(=O)(=O)c2ccc(C(C)(C)C)cc2)nc(-c2ncccn2)nc1OCCO,,plasma,,0.029
CN1CCN(c2cccc(-c3ccc4ncnc(Nc5ccc(Cl)c(Cl)c5)c4c3)c2)CC1,,human plasma,,< 0.0047
C=CC(=O)Nc1cc(Nc2ncc(C(=O)OC(C)C)c(-c3cn(C)c4ccccc34)n2)c(OC)cc1N(C)CCN(C)C,equilibrium dialysis,rat plasma,"5 µM, 18 h, pH 7.4",0.32 ± 0.04
CO[C@]1(C(=O)N[C@@H](C)c2ccc(-n3cc(F)cn3)nc2)CC[C@H](c2nc(C)cc(Nc3cc(C)[nH]n3)n2)CC1,,plasma,,0.032
CC#Cc1cncc(-c2ccc3c(c2)[C@@]2(N=C(C)C(N)=N2)[C@]2(CC[C@H](OC)CC2)C3)c1,equilibrium dialysis,dog plasma,"6 h, pH 7.4",0.099
COCC(=O)N1CCC[C@H](C(=O)NCc2nc(-c3ccccc3)cs2)C1,,mouse plasma,6 h,0.062
Cc1ccc(C(=O)Nc2ccnc(S(N)(=O)=O)c2)c(N2CCCC(F)(F)CC2)n1,,plasma,,6.6%
N#Cc1cc(-c2ccc(C(=O)N3CCNCC3)cc2)ccc1-n1cc(O)c(=O)c(C(=O)O)c1,,human plasma,,0.74
N#C[C@@]12C[C@@H]1[C@@H](n1cnc3c(N[C@@H](C4CCC4)C4CC4)nc(I)nc31)[C@H](O)[C@@H]2O,plasma protein binding,human plasma,,0.0138
O=S(=O)(c1ccc(-c2ccc3nccc(Nc4cncs4)c3c2)cc1)N1CCOCC1,,human plasma,,0.038
C[C@@H]1CN(c2cccc(-c3ccc4ncnc(Nc5ncco5)c4c3)c2)C[C@H](C)O1,,human plasma,,0.002
O=S(=O)(c1ccc(-c2ccc3nccc(Nc4ccncc4)c3c2)cc1)N1CCOCC1,,human plasma,,0.059
N#C[C@@]1(c2ccc3c(N)ncnn23)O[C@H](CO)[C@@H](O)[C@H]1O,,human plasma,10 µM,0.879
COc1ccc(Nc2ccnc3ccc(-c4ccc(S(=O)(=O)N5CCOCC5)cc4)cc23)cc1C,,human plasma,,0.005
CCCC[C@@H]1NC(=O)[C@H](Cc2ccc(O)cc2)NC(=O)[C@@H]2CCCN2C(=O)[C@H](CC(=O)O)NC(=O)[C@H](C)NC(=O)[C@H](Cc2ccccc2)NC(=O)[C@@H]2CSCCC(=O)N3CN(CN(C3)C(=O)CCSC[C@@H](C(=O)N[C@@H](C)C(N)=O)NC1=O)C(=O)CCSC[C@H](NC(C)=O)C(=O)N[C@@H](CC(C)(C)C)C(=O)N1CCC[C@H]1C(=O)N[C@@H](CCC(=O)O)C(=O)N[C@H](CCCCNC(=O)CCc1cn(CCOCCOCCOCCOCCOCCOCCOCCOCCOCCOCCNC(=O)CCOCCN(CCOCCC(=O)NCCOCCOCCOCCOCCOCCOCCOCCOCCOCCOCCn3cc(CCC(=O)NCCCC[C@H]4NC(=O)[C@H](CCC(=O)O)NC(=O)[C@@H]5CCCN5C(=O)[C@H](CC(C)(C)C)NC(=O)[C@@H](NC(C)=O)CSCCC(=O)N5CN6CN(C5)C(=O)CCSC[C@H](NC(=O)[C@H](Cc5ccc(O)cc5)NC(=O)[C@@H]5CCCN5C4=O)C(=O)N[C@@H](Cc4ccccc4)C(=O)N[C@@H](C)C(=O)N[C@@H](CC(=O)O)C(=O)N4CCC[C@H]4C(=O)N[C@@H](Cc4ccc(O)cc4)C(=O)N[C@@H](CCCC)C(=O)N[C@H](C(=O)N[C@@H](C)C(N)=O)CSCCC6=O)nn3)CCOCCC(=O)NCCOCCOCCOCCOCCOCCOCCOCCOCCOCCOCCn3cc(CCC(=O)N[C@H]4CSCCC(=O)N5CN6CN(C5)C(=O)CCSC[C@H](NC(=O)[C@@H](CC(=O)O)NC(=O)[C@H](Cc5cccc7ccccc57)NC(=O)[C@@H]5CCCN5C4=O)C(=O)N[C@@H](CCSC)C(=O)N[C@@H](CCCCNC(=N)N)C(=O)N[C@@H](CC(=O)O)C(=O)N[C@@H](Cc4c[nH]c5ccccc45)C(=O)N[C@@H](CO)C(=O)N[C@@H]([C@@H](C)O)C(=O)N4CCC[C@H]4C(=O)N4C[C@H](O)C[C@H]4C(=O)N[C@@H](Cc4c[nH]c5ccccc45)C(=O)N[C@H](C(N)=O)CSCCC6=O)nn3)nn1)C(=O)N1CCC[C@H]1C(=O)N[C@@H](Cc1ccc(O)cc1)C(=O)N2,ultracentrifugation,rat plasma,,0.24

# Some of these lines once more:
SMILES,assay,test system,setting,fraction unbound
O=S(=O)(c1ccc(-c2ccc3nccc(Nc4cncs4)c3c2)cc1)N1CCOCC1,,human plasma,,0.038
C[C@@H]1CN(c2cccc(-c3ccc4ncnc(Nc5ncco5)c4c3)c2)C[C@H](C)O1,,human plasma,,0.002
O=S(=O)(c1ccc(-c2ccc3nccc(Nc4ccncc4)c3c2)cc1)N1CCOCC1,,human plasma,,0.059
N#C[C@@]1(c2ccc3c(N)ncnn23)O[C@H](CO)[C@@H](O)[C@H]1O,,human plasma,10 µM,0.879
